Assay results from different studies.
Numbered parts are unrelated; each lists some results of a single study.
Chain of UniProt P61077 (whole entry, looked up): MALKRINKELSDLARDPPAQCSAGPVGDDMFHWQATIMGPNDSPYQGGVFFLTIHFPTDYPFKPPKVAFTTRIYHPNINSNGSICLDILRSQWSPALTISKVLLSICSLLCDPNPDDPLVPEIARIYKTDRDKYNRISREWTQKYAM

Series 1
Target: Ras GTPase-activating protein-binding protein 1, RRM domain (G3BP1, Homo sapiens, UniProt Q13283)
Chain of UniProt Q13283 (whole entry, looked up): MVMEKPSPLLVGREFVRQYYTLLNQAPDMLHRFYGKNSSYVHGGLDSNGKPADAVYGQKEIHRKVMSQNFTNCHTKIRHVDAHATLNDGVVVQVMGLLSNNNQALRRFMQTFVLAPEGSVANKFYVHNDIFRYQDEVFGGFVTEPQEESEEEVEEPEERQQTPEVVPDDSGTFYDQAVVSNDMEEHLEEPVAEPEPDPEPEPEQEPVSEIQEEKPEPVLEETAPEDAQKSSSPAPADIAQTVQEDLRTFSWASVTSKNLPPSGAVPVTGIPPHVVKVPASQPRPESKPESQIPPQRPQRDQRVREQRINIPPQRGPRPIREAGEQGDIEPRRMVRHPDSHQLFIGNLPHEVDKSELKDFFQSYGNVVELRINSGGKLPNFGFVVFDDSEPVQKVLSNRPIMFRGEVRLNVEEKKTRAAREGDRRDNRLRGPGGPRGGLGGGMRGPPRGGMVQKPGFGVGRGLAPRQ
Method: RNA Bind-n-Seq
Molecule type: RNA
Matrix: in vitro
Concentration: 1 µM
Notes: whole 134-nt RNA, ends assumed
Added: 150 mM KCl
Reference: input library
Reading: higher = stronger binding
Endpoint: log2 enrichment
Constant ends, left off below: GGGAGUUCUACAGUCCGACGAUC … UGGAAUUCUCGGGUGUCAAGG
GUCCUGUGCUACACAUCGUAUGUACCGAAUCGGGUUUUUUUGGGUGGGUUUUUUUGGGAAAGUAUUAUGUUACGCCGUUCGGAUCUGCAC: 0.22
GCAGGACGUAAAAACAAAUGGAAAUGCUUCGGAUAGUGGCAGGGGUGGGGGUUGCUAAGGAAAGGGUGGGAUGGGAGUGGGUAAAGAGUU: 1.01
GUCCUGUGCUACACAUCGUAUGUACCGAAUCGGAAAAAAAGGAAAAAAAGGUUUUUGGAAAGUAUUAUGUUACGCCGUUCGGAUCUGCAC: -0.111
CUGUGCUACACAUCGUAUGUACCGAAUCGGGUUUUUUUGGGGUUUUUUUGGGUUUUUUUGGAAAGUAUUAUGUUACGCCGUUCGGAUCUG: -0.0594
CCUGUGCUACACAUCGUAUGUACCGAAUCGGAAAAAAAGGGGAAAAAAAGGGAAAAAAAGGAAAGUAUUAUGUUACGCCGUUCGGAUCUG: -0.0256
UGGCCCUGCUGGCAUGCGGGGAGGAAGAGGUGGCCUCAUGGAUCGUGGUGGUCCCGGUGGAAUGUUCAGAGGUGGCCGUGGUGGAGACAG: 0.911
GUCCUGUGCUACACAUCGUAUGUACCGAAUCGGCCCCCGGGGCCCCCGGGCCCCCGGGGAAAGUAUUAUGUUACGCCGUUCGGAUCUGCA: -0.618
UCAAGUCCUGUGCUACACAUCGUAUGUACCGAAUCGGGGCCCGGGCCCGGCCCGGAAAGUAUUAUGUUACGCCGUUCGGAUCUGCACUUC: -0.708

Series 2
Target: RNA binding protein fox-1 homolog 2, RRM domain, GST-SBP tag (RBFOX2, Homo sapiens, UniProt O43251-10, residues 100-194)
Method: RNA Bind-n-Seq
Molecule type: RNA
Matrix: in vitro
Concentration: 365 nM
Notes: natural RNA segment, single round, ends assumed
Reference: no-protein control
Reading: higher = stronger binding
Endpoint: RBNS enrichment (R)
Constant ends, left off below: GGGAGUUCUACAGUCCGACGAUC … UGGAAUUCUCGGGUGCCAA
Target sequence (chain): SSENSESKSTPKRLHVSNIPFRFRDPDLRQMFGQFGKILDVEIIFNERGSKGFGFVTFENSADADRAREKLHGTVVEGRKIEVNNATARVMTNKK
GGAUCCUGGGCUGGGUGGCCCCUGUCUCGGGGCUUGCCCCACUCUGCCUGCCUGCUGUUGGUCCUCUCUCUGUGGGGCUGAAUUGCCAGGGGCGAGGCCCUUCCUCUUUG: 1.01
GUUUCUCCACAGUCCUCUUCUGGGCAAAUUCUUGUUUCUUCACAUGCUGGACUAGCUUAAGACCAAUGCAGUAGCUUAUUUCCAAGCCUUGCAAAGUAUAUAAUAUCUAA: 0.577
GUUCUGUGCUAGAGAUUGAGAACAAUGUAAAGACUUGAGGCUUAGGUAGUGCUCUAUCUGGUCAGGCUAUAGGCUGCGGGCAGCCUUCACUUCCAACCAGCCGCUGUGAG: 2.4
UGAAGCUUCCAAAUCAAGAAAAGCCGGCACCAAGAACUUCCAUUCUAAUCUAGAGCUGACCAGUUUGAGCUGAUUCUCUCUUUGAAGAGUCCUUCUUGAUUGCAGUGCAG: 0.309
AGGCCAAGCCUCAGCAGGAAAGUGCAGUAGAAGAUACUGUUUUACAGACAAGUCCUGUGUAACCUGCUUUAAAUGCUACACAUGUUAAUAAAAUGCUUAUUUGGUUAGCU: 0.364
AUUACUUAACCACUGCUGUCCCUCGGUCCCUUUUUCCUAAACGGGUUUAGUUCUGUCUUUUUUCUCCUUUUUUCUAAAUGCUGGUAAAUAUUUACAUUCAGCCAGGGAAG: 0.477
AGGGACAACUUUUAAGGAGGCGUGUCCCUGGUAGGGGCAUCCCUGUUCACCAGGUGCCUGUCAUCACCCCACUUGACUGACAUCUACCCUGGUGACUAUGGGUUCCUCUU: 0.194
UGAAGGUGGGAUAAGGCUCCUCUGUUAGUGCUGGAAGCUCCUGUAAUUGCCGCAUGGAUCCCACUGUGCCCUCUUGUUCUGUGCAAGUCUGUCCUGUCUGGGCACUAACC: 3.06

Mixed results
B1: ZMIZ2 RING domain (UniProt Q8NF64); chain GTIPGTPGPNGEDGVEQTAIKVSLKCPITFRRIQLPARGHDCRHIQCFDLESYLQLNCERGTWRCPVCNKTALLEGLEVDQYMLGILIYIQNSDYEEITIDPTCSWK
B1 (ZMIZ2 RING domain) — lacZ reporter activity (UBE2D3 UBC core domain (UniProt P61077); yeast two-hybrid; yeast; mostly zero background; reference: not given, higher = stronger interaction): 0
AARHKHQVM — binding (HLA class I histocompatibility antigen, A alpha chain, allele A*80:01 (Homo sapiens, UniProt P04439); peptide-MHC binding; peptide; concentration not given): inactive
